Measurements collected from several papers.
Target: Platelet-derived growth factor receptor alpha (PDGFRA, Homo sapiens, UniProt P16234)
UniProt P16234, sequence (whole entry, unmodified, looked up): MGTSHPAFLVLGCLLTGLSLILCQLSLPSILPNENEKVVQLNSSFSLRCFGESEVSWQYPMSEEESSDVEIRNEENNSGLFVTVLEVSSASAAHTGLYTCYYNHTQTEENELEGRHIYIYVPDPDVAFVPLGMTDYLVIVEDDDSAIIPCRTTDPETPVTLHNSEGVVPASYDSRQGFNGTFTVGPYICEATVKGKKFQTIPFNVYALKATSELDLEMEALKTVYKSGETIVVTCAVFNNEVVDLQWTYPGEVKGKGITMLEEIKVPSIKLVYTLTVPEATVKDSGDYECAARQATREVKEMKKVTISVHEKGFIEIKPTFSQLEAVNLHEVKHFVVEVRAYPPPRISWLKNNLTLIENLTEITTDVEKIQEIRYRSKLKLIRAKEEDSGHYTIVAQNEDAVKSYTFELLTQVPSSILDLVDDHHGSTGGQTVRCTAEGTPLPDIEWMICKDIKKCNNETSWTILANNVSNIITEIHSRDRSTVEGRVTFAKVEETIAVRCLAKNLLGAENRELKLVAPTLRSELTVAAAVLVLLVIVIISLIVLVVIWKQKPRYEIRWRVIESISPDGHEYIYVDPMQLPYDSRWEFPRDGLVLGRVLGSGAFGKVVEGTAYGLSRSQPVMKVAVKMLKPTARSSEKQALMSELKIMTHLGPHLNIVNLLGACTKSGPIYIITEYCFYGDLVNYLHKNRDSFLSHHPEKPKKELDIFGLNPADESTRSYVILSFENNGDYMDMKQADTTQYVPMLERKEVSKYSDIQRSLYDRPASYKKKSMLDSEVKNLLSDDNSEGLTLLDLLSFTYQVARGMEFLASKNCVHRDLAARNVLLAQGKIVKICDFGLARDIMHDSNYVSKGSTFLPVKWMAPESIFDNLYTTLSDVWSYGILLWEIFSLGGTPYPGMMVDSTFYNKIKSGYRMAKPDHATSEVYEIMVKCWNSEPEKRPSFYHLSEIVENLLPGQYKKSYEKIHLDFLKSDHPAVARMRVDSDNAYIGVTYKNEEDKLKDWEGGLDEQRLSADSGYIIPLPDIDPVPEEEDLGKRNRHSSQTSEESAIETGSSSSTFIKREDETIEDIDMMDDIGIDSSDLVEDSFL

With `COc1cc(OC)c(F)c(/C=C/c2cnc3ccn(S(=O)(=O)c4cn(CCF)cn4)c3n2)c1F` the inhibition was 0% (10 nM).
With `O=C=[N][Ru-4]123([n]4c5ccc(O)cc5c5c6c(c7cc(F)c[n+]1c7c54)C(=O)NC6=O)[S+]1CC[S+]2CC[S+]3CC1` (stereo not shown) the remaining activity was 127% (enzyme activity; 100 nM, human enzyme, added: 10 µM ATP; baseline: untreated).
`C=CC(=O)Nc1cccc(-c2cnc3[nH]cc(C(=O)NC(C)(C)C)c3n2)c1` gave an inhibition of 22% (enzyme activity, inhibitor; 0.1 µM).
With `NC(=O)[C@@H](O)C[C@H]1CCc2sc3ncnc(O[C@H]4CC[C@H](N5CCOCC5)CC4)c3c21` the inhibition was 19% (enzyme activity, inhibitor; 10 µM).
The inhibition of `COc1ccc(C(=O)/C=C/c2ccccc2-c2c[nH]c3ccc(C#N)cc23)c(O)c1` is reported as 0% (enzyme activity, inhibitor; 20 µM).
`COc1cc(Nc2nc(C)cc(-c3cnn4nc(OC)ccc34)n2)cc(C(F)(F)F)c1` has a remaining activity of 69% (inhibitor; 1 µM; baseline: control).
The inhibition of `Cc1cccc(O[C@H]2CCC[C@@H](C(C)CNCc3ccncc3)C2)c1` (relative stereo) is reported as 4% (enzyme activity, inhibitor; 1 µM).
`Cc1nc2c(F)cc(-c3nc(Nc4ccc(CNC(=O)CCCCCCC(=O)NO)cc4)ncc3F)cc2n1C(C)C` gave an inhibition of 12% (enzyme activity, inhibitor; 1 µM).
`COCC12C(=O)NC3C4(C(OC)CC1O)C1CC5(O)C(OC)C(O)C(OC(C)=O)(C1C5OC(=O)c1ccccc1)C3(O)C(OC)C24` (stereo not shown) has a remaining activity of 103% (kinase activity, inhibitor, ProQinase kinase profiling; 25 µM; baseline: control).
`CNC(=O)C1CCN(c2cc(C)c(F)cc2NC(=O)c2ccc(-c3cc(O)ccc3C)c(C)c2)CC1` gave a remaining binding of 57% (binding, competition with immobilised ligand; 1 µM).
Under “activity vs control”, `O=C(Cc1ccc(OCc2ccccc2)cc1)NC1(C(=O)O)CCN(C(=O)c2ccc(-c3cccc(Cl)c3)cc2)CC1` is recorded as 121% (enzyme activity, inhibitor; 10 µM).
`CN1CCN(Cc2ccc(NC(=O)c3cccc(C#Cc4cnc(N)c5ncccc45)c3)cc2C(F)(F)F)CC1` has a remaining binding of 0.3% (cell-free assay, competition with immobilised ligand; 0.5 µM).
With `C[C@H]1CN(C(=O)c2cn(-c3ccnc(N)n3)c3cc(C#CC4(O)CCCCC4)ccc23)CCN1` the inhibition was -2% (enzyme activity, inhibitor, FRET; 1 µM).
The remaining binding of `CNC1C[S+]2CC[S+]3CC[S+](C1)[Ru-4]321([N]=C=S)[n]2c3ccc(OC)cc3c3c4c(c5cc(F)c[n+]1c5c32)C(=O)NC4=O` (stereo not shown) is reported as 57% (KinomeScan; 0.1 µM; baseline: untreated).
`C=CC(=O)N1CCc2ccc(-n3c(=O)ccc4cnc5ccc(-c6cnn(C)c6)cc5c43)cc21` has a remaining binding of 69% (KINOMEscan; 1 µM; baseline: DMSO control).
`CNS(=O)(=O)Nc1nccc(Cc2c(C)c3ccc(Oc4ncccc4F)cc3oc2=O)c1F` gave a remaining binding of 100% (cell-free assay, competition with immobilised ligand; 10 µM).
`CNc1ccc(-c2n[nH]c3c2CCN(C(=O)c2ccccc2)C3)cc1` gave a remaining binding of 26% (cell-free assay, competition with immobilised ligand; 10 µM).
With `Cc1ccc(-c2c(/C=C(\C#N)C(=O)NC(C)C)n(CCCO)c3ncnc(N)c23)cc1` the remaining binding was 54% (cell-free assay, competition with immobilised ligand; 1 µM).
`Cc1cnc2nc1Nc1cccc(c1)COC/C=C/COCc1cc(ccc1OCCN1CCOCC1)N2` has a remaining binding of 92% (binding; 0.1 µM).
With `CCN1CCN(Cc2ccc(NC(=O)c3ccc(C)c(NC(=O)c4cncc(-c5cccs5)c4)c3)cc2C(F)(F)F)CC1` the remaining binding was 0.9% (binding, competition with immobilised ligand; 1 µM).
`C=CC(=O)N1CCCC(n2c(=O)c3ncccc3n(Cc3ccc(Oc4ccccc4)cc3)c2=O)C1` (stereo not shown) has a remaining binding of 50% (cell-free assay, competition with immobilised ligand; 1 µM).
`CC(C)=CC1OC(C)(C)C2C=C3C(=O)C(Cl)=CC(O)C3C3C(O)C4OC4C(=O)C132` (stereo not shown) gave a remaining binding of 68% (cell-free assay, competition with immobilised ligand; 10 µM).
The inhibition of `O=C(Nc1ccc(Oc2ncnc3[nH]cc(-c4ccccc4)c23)c(F)c1)c1c2n(n(-c3cc(F)ccc3F)c1=O)CCCC2` is reported as 19% (enzyme activity, inhibitor; 0.5 µM).
The remaining binding of `COc1ccc(NC(=O)Nc2ccc3c(c2)C(=O)N(C(C)CO)CC(C)C(CN(C)Cc2ccc4c(c2)OCO4)O3)cc1` (stereo not shown) is reported as 90% (binding, competition with immobilised ligand; 10 µM).
`C=C1CCCCCCCCCC(CO)C1=O` (stereo not shown) gave a remaining signal of 100% (cell-free assay; 10 µM).

For quick reference, copied from above:
The inhibition of `O=C(Nc1ccc(Oc2ncnc3[nH]cc(-c4ccccc4)c23)c(F)c1)c1c2n(n(-c3cc(F)ccc3F)c1=O)CCCC2` is reported as 19% (enzyme activity, inhibitor; 0.5 µM).
The inhibition of `COc1ccc(C(=O)/C=C/c2ccccc2-c2c[nH]c3ccc(C#N)cc23)c(O)c1` is reported as 0% (enzyme activity, inhibitor; 20 µM).
`COc1cc(Nc2nc(C)cc(-c3cnn4nc(OC)ccc34)n2)cc(C(F)(F)F)c1` has a remaining activity of 69% (inhibitor; 1 µM; baseline: control).
